Measured values from different studies.
Parts stem from different laboratories: compare values within a part only. Values joined by “and” are separate records of one study, mostly repeats; a detail may differ.
Chain of UniProt Q16659 (whole entry, looked up): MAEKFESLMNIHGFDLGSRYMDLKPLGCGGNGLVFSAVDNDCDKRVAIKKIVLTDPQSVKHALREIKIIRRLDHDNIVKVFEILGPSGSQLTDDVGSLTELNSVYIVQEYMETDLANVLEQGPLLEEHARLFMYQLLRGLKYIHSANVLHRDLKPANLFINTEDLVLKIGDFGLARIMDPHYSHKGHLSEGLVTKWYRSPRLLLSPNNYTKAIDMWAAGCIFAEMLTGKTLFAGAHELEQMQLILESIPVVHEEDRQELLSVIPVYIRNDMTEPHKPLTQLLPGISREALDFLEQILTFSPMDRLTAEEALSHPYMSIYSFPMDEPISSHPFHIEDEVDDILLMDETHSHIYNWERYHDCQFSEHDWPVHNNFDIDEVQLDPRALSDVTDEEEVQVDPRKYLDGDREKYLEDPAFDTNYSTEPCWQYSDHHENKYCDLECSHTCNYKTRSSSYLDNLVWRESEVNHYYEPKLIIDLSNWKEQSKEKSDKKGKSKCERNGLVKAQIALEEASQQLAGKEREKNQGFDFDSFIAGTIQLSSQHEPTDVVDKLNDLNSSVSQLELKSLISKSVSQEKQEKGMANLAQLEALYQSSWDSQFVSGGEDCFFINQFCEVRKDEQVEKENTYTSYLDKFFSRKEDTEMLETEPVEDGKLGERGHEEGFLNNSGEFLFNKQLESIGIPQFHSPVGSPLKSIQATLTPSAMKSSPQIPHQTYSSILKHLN
Chain of UniProt Q16832 (whole entry, looked up): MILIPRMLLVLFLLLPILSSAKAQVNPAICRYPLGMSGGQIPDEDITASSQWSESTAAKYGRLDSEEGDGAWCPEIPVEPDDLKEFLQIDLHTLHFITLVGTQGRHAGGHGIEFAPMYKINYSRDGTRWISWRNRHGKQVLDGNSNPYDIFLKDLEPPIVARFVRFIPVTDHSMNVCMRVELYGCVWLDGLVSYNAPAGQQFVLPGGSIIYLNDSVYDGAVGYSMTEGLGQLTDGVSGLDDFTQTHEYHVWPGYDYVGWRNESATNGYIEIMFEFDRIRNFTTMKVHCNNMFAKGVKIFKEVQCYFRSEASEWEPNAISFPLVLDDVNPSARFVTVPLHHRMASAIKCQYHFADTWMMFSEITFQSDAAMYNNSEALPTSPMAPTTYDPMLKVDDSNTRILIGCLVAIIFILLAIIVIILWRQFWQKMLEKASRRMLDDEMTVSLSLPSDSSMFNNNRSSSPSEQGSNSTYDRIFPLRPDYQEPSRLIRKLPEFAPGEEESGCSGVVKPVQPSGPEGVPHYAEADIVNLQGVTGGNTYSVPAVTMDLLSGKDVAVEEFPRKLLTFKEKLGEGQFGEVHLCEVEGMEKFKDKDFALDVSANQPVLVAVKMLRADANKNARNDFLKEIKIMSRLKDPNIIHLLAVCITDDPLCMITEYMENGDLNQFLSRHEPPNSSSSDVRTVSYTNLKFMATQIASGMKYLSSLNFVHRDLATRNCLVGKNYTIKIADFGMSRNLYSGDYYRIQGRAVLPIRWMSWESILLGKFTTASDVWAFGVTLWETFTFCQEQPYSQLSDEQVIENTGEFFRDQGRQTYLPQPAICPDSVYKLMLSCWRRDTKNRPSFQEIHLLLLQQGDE

Set 1
Target: DNA polymerase theta, ATPase domain (POLQ, Homo sapiens, UniProt O75417)
Chain of UniProt O75417 (whole entry, unmodified, looked up): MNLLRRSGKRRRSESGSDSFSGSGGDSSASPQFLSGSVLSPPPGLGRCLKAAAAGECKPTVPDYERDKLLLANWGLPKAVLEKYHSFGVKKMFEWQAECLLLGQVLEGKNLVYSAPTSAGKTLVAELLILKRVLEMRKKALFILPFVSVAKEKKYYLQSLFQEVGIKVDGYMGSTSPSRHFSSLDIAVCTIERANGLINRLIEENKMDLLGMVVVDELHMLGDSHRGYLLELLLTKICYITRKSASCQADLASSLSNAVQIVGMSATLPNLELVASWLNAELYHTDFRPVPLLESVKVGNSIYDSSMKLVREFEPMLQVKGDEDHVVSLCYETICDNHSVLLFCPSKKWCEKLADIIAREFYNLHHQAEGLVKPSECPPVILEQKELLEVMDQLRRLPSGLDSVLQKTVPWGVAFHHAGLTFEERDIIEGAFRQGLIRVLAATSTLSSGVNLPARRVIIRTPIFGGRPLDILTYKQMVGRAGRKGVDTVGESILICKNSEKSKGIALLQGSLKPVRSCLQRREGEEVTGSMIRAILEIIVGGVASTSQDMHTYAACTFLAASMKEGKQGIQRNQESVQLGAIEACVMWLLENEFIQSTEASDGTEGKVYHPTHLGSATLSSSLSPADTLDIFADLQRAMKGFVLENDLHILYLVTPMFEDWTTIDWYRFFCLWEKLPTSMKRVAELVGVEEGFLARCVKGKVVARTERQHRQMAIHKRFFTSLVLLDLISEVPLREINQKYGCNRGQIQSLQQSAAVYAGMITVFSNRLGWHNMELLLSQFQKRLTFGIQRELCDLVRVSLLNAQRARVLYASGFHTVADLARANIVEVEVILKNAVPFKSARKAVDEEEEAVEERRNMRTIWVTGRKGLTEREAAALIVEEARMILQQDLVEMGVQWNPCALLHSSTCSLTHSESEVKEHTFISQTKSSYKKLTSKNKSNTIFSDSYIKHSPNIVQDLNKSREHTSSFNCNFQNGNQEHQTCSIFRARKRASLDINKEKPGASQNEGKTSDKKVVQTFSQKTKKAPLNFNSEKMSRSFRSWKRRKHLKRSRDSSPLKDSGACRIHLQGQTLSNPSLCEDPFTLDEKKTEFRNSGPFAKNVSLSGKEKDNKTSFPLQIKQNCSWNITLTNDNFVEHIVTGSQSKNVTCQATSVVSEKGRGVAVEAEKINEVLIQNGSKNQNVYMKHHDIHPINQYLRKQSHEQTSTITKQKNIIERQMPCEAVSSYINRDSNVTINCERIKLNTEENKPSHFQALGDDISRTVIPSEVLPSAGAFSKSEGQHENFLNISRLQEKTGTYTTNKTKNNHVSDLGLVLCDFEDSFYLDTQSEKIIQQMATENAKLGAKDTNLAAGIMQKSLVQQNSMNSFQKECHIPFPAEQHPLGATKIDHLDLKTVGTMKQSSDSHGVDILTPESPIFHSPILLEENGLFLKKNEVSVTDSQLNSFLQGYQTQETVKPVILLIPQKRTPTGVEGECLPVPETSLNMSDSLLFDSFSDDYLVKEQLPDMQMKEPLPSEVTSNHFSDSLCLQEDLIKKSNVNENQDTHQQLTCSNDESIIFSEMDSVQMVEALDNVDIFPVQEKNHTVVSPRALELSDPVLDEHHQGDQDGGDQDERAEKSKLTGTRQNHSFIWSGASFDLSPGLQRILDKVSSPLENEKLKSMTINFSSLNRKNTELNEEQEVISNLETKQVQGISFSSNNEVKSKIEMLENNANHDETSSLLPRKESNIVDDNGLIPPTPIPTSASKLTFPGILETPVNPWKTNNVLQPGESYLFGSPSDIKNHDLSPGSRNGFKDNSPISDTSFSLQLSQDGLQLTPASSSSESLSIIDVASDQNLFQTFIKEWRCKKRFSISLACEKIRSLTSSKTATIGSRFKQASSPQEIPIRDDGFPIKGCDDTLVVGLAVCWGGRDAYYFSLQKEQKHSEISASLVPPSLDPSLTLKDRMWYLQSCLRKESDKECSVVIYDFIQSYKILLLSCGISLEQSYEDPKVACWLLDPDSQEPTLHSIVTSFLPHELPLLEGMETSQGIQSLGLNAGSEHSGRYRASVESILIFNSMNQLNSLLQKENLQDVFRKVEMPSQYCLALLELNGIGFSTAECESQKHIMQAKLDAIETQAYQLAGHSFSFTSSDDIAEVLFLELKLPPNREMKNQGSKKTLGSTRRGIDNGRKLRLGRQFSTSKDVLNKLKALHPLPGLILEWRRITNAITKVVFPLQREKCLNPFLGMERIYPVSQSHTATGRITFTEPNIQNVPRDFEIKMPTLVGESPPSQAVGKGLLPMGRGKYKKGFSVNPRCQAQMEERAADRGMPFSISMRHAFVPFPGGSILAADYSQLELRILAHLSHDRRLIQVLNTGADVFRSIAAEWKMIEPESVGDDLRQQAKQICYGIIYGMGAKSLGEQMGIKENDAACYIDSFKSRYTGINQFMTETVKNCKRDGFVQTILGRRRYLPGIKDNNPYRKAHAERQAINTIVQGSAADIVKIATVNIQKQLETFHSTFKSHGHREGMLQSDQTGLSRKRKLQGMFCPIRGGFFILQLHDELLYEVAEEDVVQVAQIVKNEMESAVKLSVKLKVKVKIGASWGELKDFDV
Observed: enzyme activity
Action: inhibitor
Tested at: 77 µM
Baseline: untreated
| Compound | remaining activity |
| --- | --- |
| NC1(C(=O)O)CC1 | 84.3% |
| Cc1c(C)c2c(c(C)c1O)CC[C@@](C)(CCC[C@H](C)CCC[C@H](C)CCCC(C)C)O2 | 101% |
| Cn1c(=O)cc(N2CCC[C@@H](N)C2)n(Cc2ccccc2C#N)c1=O | 99.2% |
| N#Cc1c(NC(=O)c2cccc3ccccc23)sc2c1CCCC2 | 100% and 110% |
| CN(C(=O)C(Cl)Cl)c1ccc(OC(=O)c2ccco2)cc1 | 100% |
| Cc1nnc(C(C)C)n1[C@@H]1C[C@H]2CC[C@@H](C1)N2CC[C@H](NC(=O)C1CCC(F)(F)CC1)c1ccccc1 | 71.4% |
| Cn1ccnc1 | 96.4% |
| N[C@H](C(=O)O)c1cc(O)cc(O)c1 | 107% |
| Cc1cccc(CC(=O)N2CCc3c2ccc(-c2cn(C)c4ncnc(N)c24)c3F)n1 | 86.3% |
| Cc1cc(/C=C/C#N)cc(C)c1Nc1ccnc(Nc2ccc(C#N)cc2)n1 | 102% |
| CCN(CC)C(=O)c1ccc(Nc2nc(OCC3CCCCC3)c3[nH]cnc3n2)cc1 | 113% |
| CN(C)CCCCC(=O)Nc1ccc(NC(=S)NC(=O)c2ccc(C(C)(C)C)cc2)cc1 | 103% |
| NC(=O)c1cccnc1 | 95.4% |
| Cc1cc(C)c2c(c1)[C@@H](N(Cc1cc(C(F)(F)F)cc(C(F)(F)F)c1)c1nnn(C)n1)CCCN2C[C@H]1CC[C@H](C(=O)O)CC1 | 98.7% |
| O=C(CCCCC(=O)Nc1c(I)cc(I)c(C(=O)O)c1I)Nc1c(I)cc(I)c(C(=O)O)c1I | 99.1% |
| CCn1c(=O)[nH]c2cc(Cl)c(Cl)cc21 | 105% |

Set 2
Target: Protein kinase C beta type, isoform beta-II (PRKCB, Homo sapiens, UniProt P05771)
Chain of UniProt P05771 (whole entry, looked up): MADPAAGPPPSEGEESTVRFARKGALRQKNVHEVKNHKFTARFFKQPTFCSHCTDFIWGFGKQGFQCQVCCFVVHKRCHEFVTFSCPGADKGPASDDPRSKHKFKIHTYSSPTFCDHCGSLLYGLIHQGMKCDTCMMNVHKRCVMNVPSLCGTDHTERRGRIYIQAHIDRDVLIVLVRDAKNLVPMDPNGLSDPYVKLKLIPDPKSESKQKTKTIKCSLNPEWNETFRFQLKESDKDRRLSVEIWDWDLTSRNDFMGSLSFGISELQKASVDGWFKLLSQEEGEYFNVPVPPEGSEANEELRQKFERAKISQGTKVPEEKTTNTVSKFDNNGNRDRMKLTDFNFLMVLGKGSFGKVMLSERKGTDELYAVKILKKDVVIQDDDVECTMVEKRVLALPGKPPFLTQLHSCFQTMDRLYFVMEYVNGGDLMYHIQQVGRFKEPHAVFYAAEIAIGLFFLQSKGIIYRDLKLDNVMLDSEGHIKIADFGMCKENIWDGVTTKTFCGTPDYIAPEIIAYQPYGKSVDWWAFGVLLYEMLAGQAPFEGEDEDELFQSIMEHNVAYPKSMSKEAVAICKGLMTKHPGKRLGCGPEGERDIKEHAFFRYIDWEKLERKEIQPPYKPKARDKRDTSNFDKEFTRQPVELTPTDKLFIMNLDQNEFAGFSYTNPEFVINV
Observed: enzyme activity
Action: inhibitor
Tested at: 0.5 µM
Baseline: control
| Structure (SMILES) | remaining activity [%] |
| --- | --- |
| O=Nc1c(-c2c(O)[nH]c3cc(Br)ccc23)[nH]c2ccccc12 | 108 |
| N#Cc1cnc2cnc(NCc3cccnc3)cc2c1Nc1ccc(F)c(Cl)c1 | 86.2 |
| CCCNC(=O)Nc1ccc(Oc2ncnc3cc(OC)c(OC)cc23)cc1Cl | 93.6 |
| c1ccc2c(-c3ccncc3)c[nH]c2c1 | 89.5 |
| c1ccc(-c2n[nH]c3c2oc2ccccc23)cc1 | 113 |
| Oc1cccc(-c2nc(N3CCOCC3)c3oc4ncccc4c3n2)c1 | 102 |
| COc1cccc(-c2cc(=O)c3ccccc3o2)c1N | 102 |
| CN(C)S(=O)(=O)c1ccc2c(c1)/C(=C/c1cc3c([nH]1)CCCC3)C(=O)N2 | 92 |
| Cc1cc(Nc2cc(N3CCN(C)CC3)nc(Sc3ccc(NC(=O)C4CC4)cc3)n2)[nH]n1 | 89.7 |
| O=C1Cc2c([nH]c3ccc(Br)cc23)-c2ccccc2N1 | 102 |
| O=c1cc(N2CCOCC2)oc2c(-c3ccccc3)cccc12 | 104 |
| COc1ccc2c(c1)c(C1=C(c3c[nH]c4ccccc34)C(=O)NC1=O)cn2CCCN(C)C | 14.2 |
| CN1CCN(c2ccc3nc(-c4c(N)c5c(F)cccc5[nH]c4=O)[nH]c3c2)CC1 | 92 |
| O=C(c1cc2cc(O)ccc2[nH]1)c1cc2cc(O)ccc2[nH]1 | 98.9 |
| COc1ccc(COc2ccc(Cc3cnc(N)nc3N)cc2OC)cc1 | 110 |
| O=C1NC(=O)c2c1c1c3ccccc3[nH]c1n1cncc21 | 94.7 |
| O=C1NC(=O)c2c1c1c3ccccc3[nH]c1c1[nH]c3cc(Br)ccc3c21 | 72.8 |
| CCCCc1c(-c2ccc(OC)cc2)[nH]c2nccnc12 | 106 |
| O=C1Nc2ccccc2/C1=C\c1c(Cl)[nH]c2ccccc12 | 92.6 |
| O=C1Nc2ccc(Br)cc2/C1=C/c1cc2c([nH]1)CCCC2 | 85.5 |

Set 3
Target: Bromodomain-containing protein 4, BD1 (BRD4, Homo sapiens, UniProt O60885)
Tested at: 50 µM
| Compound | inhibition [%] |
| --- | --- |
| NS(=O)(=O)c1ccc(NN=C2C(=O)Nc3ccc(Br)cc32)cc1 | 19.4 |
| CN(C)C[C@@H]1CCn2cc(c3ccccc32)C2=C(C(=O)NC2=O)c2cn(c3ccccc23)CCO1 | 95.3 |
| Cc1cc(Nc2cc(CN3CCOCC3)c3nc(C)c(Cc4ccc(Cl)cc4F)n3n2)n[nH]1 | 18 |
| CCc1cc2c(cc1N1CCC(N3CCOCC3)CC1)C(C)(C)c1[nH]c3cc(C#N)ccc3c1C2=O | 1.5 |
| COCCCOc1ccnc(C[S+]([O-])c2nc3ccccc3[nH]2)c1C (centres unmarked) | 52.8 |
| COc1cc(Nc2ncc3c(n2)-c2ccc(Cl)cc2C(c2c(F)cccc2OC)=NC3)ccc1C(=O)O | 13.1 |
| NC(=O)Nc1cc(-c2cccc(F)c2)sc1C(=O)N[C@H]1CCCNC1 | 16.6 |
| C[C@@H]1CCN(C(=O)CC#N)C[C@@H]1N(C)c1ncnc2[nH]ccc12 | -10.4 |
| Cn1cnc2c(F)c(Nc3ccc(Br)cc3F)c(C(=O)NOCCO)cc21 | 1.65 |
| Cc1cc(C(=O)NOCCO)c(Nc2ccc(I)cc2F)n(C)c1=O | 10.7 |
| CC[C@H](Nc1ncnc2[nH]cnc12)c1nc2cccc(F)c2c(=O)n1-c1ccccc1 | -0.75 |
| Cc1c[nH]c(-c2cnc(NCCNc3ccc(C#N)cn3)nc2-c2ccc(Cl)cc2Cl)n1 | 26.1 |
| Cc1ccc(NC(=O)c2ccc(CN3CC[C@H](N(C)C)C3)c(C(F)(F)F)c2)cc1Nc1nccc(-c2cncnc2)n1 | 42.9 |
| Cc1cc(Nc2nc(N[C@@H](C)c3ncc(F)cn3)ncc2Cl)n[nH]1 | 19.4 |
| CN(C)C/C=C/C(=O)Nc1cc2c(Nc3ccc(F)c(Cl)c3)ncnc2cc1O[C@H]1CCOC1 | 13.7 |
| CC(C)NC[C@@H](C(=O)N1CCN(c2ncnc3c2[C@H](C)C[C@H]3O)CC1)c1ccc(Cl)cc1 | -3.95 |

Set 4
Structure (SMILES): O=C(NCCCC1CCCCC1)c1ccc(CNC(=O)c2cnn(-c3ccccc3)c2C(F)(F)F)cc1
Observed: cell-free assay
Technique: competition with immobilised ligand
Tested at: 0.1 µM
| target | remaining binding [%] |
| --- | --- |
| SRPK3 (Homo sapiens, UniProt Q9UPE1) | 100 |
| STK24 (Homo sapiens, UniProt Q9Y6E0) | 100 |
| MAPK6 (Homo sapiens, UniProt Q16659) | 100 |
| MAP3K11 (Homo sapiens, UniProt Q16584) | 100 |
| HIPK3 (Homo sapiens, UniProt Q9H422) | 88 |
| CAMKK1 (Homo sapiens, UniProt Q8N5S9) | 100 |
| CASK (Homo sapiens, UniProt O14936) | 100 |
| Myosin-IIIa (MYO3A, Homo sapiens, UniProt Q8NEV4) | 98 |
| GRK3 (Homo sapiens, UniProt P35626) | 100 |
| STK17B (Homo sapiens, UniProt O94768) | 100 |
| CAMKK2 (Homo sapiens, UniProt Q96RR4) | 100 |
| PRKCI (Homo sapiens, UniProt P41743) | 100 |
| ERBB2 (Homo sapiens, UniProt P04626) | 100 |
| MYLK (Homo sapiens, UniProt Q15746) | 100 |
| GAK (Homo sapiens, UniProt O14976) | 100 |
| Ribosomal protein S6 kinase alpha-5, C-terminal kinase domain (RPS6KA5, Homo sapiens, UniProt O75582) | 82 |
| MAPKAPK2 (Homo sapiens, UniProt P49137) | 100 |
| MAP2K3 (Homo sapiens, UniProt P46734) | 100 |
| GRK1 (Homo sapiens, UniProt Q15835) | 94 |
| DDR2 (Homo sapiens, UniProt Q16832) | 100 |
| SRMS (Homo sapiens, UniProt Q9H3Y6) | 93 |
| ERBB3 (Homo sapiens, UniProt P21860) | 100 |
| CLK2 (Homo sapiens, UniProt P49760) | 100 |
| BRAF (Homo sapiens, UniProt P15056, V600E) | 100 |
| PNCK (Homo sapiens, UniProt Q6P2M8) | 79 |

Excerpt of the above (set 2):
| Structure (SMILES) | remaining activity [%] |
| --- | --- |
| O=c1cc(N2CCOCC2)oc2c(-c3ccccc3)cccc12 | 104 |
| c1ccc(-c2n[nH]c3c2oc2ccccc23)cc1 | 113 |
| O=C(c1cc2cc(O)ccc2[nH]1)c1cc2cc(O)ccc2[nH]1 | 98.9 |
| O=C1Nc2ccc(Br)cc2/C1=C/c1cc2c([nH]1)CCCC2 | 85.5 |
| Oc1cccc(-c2nc(N3CCOCC3)c3oc4ncccc4c3n2)c1 | 102 |
| O=C1Cc2c([nH]c3ccc(Br)cc23)-c2ccccc2N1 | 102 |
| O=C1Nc2ccccc2/C1=C\c1c(Cl)[nH]c2ccccc12 | 92.6 |
| c1ccc2c(-c3ccncc3)c[nH]c2c1 | 89.5 |
